{"data": "Measurements from different studies", "Genome polyprotein NS3 helicase domain": "Genome polyprotein, NS3 helicase domain (Hepatitis C virus genotype 1b, UniProt Q9WMX2)", "Trypanothione synthetase": "Trypanothione synthetase (Leishmania infantum, UniProt A4I2Z3)", "note": "Several values in a cell are separate wells, animals, samples, runs or records. ± marks the error that the study gave.", "sequence of UniProt P06493 (whole entry, looked up)": "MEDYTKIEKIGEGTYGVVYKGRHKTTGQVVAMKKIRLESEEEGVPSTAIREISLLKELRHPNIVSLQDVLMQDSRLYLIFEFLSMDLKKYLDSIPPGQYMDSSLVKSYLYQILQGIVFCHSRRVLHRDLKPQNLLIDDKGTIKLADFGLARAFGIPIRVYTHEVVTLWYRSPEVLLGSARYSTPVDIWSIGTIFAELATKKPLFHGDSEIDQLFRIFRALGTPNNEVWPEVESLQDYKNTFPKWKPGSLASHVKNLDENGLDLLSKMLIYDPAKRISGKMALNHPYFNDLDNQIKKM", "sequence of UniProt P14867 (whole entry, looked up)": "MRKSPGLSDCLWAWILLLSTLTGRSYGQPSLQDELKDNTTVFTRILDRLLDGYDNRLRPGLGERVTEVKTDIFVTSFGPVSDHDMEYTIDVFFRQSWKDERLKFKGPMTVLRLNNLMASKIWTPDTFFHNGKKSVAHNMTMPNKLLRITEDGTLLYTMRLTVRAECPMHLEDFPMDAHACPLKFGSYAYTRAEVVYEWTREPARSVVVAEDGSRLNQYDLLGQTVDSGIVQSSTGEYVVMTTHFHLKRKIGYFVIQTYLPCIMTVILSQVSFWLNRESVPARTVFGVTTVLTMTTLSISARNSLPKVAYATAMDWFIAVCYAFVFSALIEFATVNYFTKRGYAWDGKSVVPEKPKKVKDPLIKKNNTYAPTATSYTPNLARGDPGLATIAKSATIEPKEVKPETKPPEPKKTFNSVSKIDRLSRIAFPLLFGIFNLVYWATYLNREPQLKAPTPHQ", "sequence of UniProt P18089 (whole entry, looked up)": "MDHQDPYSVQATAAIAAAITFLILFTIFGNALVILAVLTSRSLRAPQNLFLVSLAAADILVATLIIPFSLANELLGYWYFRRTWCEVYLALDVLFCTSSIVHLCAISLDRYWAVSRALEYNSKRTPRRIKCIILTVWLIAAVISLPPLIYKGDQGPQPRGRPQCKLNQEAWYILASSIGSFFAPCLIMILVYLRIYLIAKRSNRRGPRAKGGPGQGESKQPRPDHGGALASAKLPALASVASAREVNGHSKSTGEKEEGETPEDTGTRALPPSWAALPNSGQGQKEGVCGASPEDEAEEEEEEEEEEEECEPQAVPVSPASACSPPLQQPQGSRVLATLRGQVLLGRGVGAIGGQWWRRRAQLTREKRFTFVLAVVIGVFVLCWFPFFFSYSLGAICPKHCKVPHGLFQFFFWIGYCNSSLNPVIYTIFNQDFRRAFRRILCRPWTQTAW", "sequence of UniProt P34998 (whole entry, looked up)": "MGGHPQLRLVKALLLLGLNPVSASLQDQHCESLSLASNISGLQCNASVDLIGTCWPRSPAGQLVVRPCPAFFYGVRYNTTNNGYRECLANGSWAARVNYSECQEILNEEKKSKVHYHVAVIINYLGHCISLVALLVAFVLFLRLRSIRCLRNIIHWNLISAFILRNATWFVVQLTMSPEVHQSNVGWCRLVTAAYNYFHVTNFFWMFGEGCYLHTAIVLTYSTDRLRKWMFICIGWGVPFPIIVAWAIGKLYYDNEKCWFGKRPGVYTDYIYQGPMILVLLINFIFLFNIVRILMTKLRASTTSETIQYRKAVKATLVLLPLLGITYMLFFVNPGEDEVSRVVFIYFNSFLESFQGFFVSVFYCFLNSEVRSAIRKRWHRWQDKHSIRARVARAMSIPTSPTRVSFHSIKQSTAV", "sequence of UniProt P28223 (whole entry, looked up)": "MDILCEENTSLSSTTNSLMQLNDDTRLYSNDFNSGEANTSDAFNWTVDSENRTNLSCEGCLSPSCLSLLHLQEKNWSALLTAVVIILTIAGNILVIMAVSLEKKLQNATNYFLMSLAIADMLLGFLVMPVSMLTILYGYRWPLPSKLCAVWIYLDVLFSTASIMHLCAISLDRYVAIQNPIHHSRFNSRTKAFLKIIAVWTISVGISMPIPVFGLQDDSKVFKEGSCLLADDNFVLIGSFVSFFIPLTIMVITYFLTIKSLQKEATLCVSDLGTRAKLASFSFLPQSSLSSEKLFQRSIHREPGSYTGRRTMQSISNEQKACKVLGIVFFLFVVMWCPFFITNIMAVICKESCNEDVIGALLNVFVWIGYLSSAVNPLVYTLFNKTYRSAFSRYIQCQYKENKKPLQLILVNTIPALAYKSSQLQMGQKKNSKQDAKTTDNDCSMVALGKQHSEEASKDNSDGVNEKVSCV"}
{"SMILES": "COc1cc(Nc2ncc(F)c(Nc3ccc4c(n3)NC(=O)C(C)(C)O4)n2)cc(OC)c1OC", "target": "Mitogen-activated protein kinase kinase kinase 3 (MAP3K3, Homo sapiens, UniProt Q99759)", "test": "KINOMEscan", "setting": "10 µM", "inhibition": "98%"}
{"SMILES": "O=C(Nc1cccnn1)N1CCN([C@@H]2CCOc3cc(C(F)(F)F)ccc32)CC1", "target": "Xanthine dehydrogenase/oxidase, oxidase form (XDH, Bos taurus, UniProt P80457)", "test": "superoxide scavenging", "setting": "20 µM", "inhibition": "27%"}
{"SMILES": "CC(O)(CS(=O)(=O)c1ccc(F)cc1)C(=O)Nc1ccc(C#N)c(C(F)(F)F)c1 (stereo not drawn)", "target": "Genome polyprotein NS3 helicase domain", "test": "DNA binding, inhibitor", "test system": "hepatitis C virus", "setting": "100 µM, added: Cy5-dT15 DNA", "inhibition": "0%"}
{"SMILES": "CN1CCN(c2nc(N)c3ccccc3n2)CC1", "target": "5-hydroxytryptamine receptor 2A (HTR2A, Homo sapiens, UniProt P28223)", "test": "radioligand binding, radioligand competition binding", "setting": "0.1 µM, first replicate", "scale": "baseline: control specific binding", "inhibition": "4%"}
{"SMILES": "FC(F)(F)c1cccc(Nc2nc(NCCOc3ccccc3)nc3[nH]cnc23)c1", "target": "Cyclin-dependent kinase 1, with cyclin B (CDK1, Homo sapiens, UniProt P06493)", "test": "enzyme activity, inhibitor, Thermo Fisher kinase screening", "setting": "5 µM", "inhibition": "10% and 2%"}
{"SMILES": "O=c1ccc2ccccc2o1", "target": "L-type calcium channel (dihydropyridine site)", "test": "radioligand binding", "setting": "10 µM", "inhibition": "4.37%"}
{"SMILES": "O=C(Nc1cccnn1)N1CCC(=Cc2cccc(Oc3ccc(C(F)(F)F)cn3)c2)CC1", "target": "Delta-type opioid receptor (OPRD1, Homo sapiens, UniProt P41143)", "test": "radioligand binding, inhibitor", "setting": "10 µM, human, added: [3H]naltrindole", "inhibition": "14%"}
{"SMILES": "CCS(=O)(=O)Nc1cccc(C(=C2CCCCC2)c2cnc[nH]2)c1", "target": "Genome polyprotein NS3 helicase domain", "test": "DNA binding, inhibitor", "test system": "hepatitis C virus", "setting": "100 µM, added: Cy5-dT15 DNA", "inhibition": "0%"}
{"SMILES": "C[C@H](C(=O)N[C@H]1COc2ccccc2[C@@H]1S(C)(=O)=O)c1ccc(F)cc1", "target": "steroid 5alpha-reductase (rat)", "test": "Eurofins selectivity panel", "setting": "10 µM", "inhibition": "7%"}
{"SMILES": "CN(C(=O)n1cnc(-c2ccc[n+]([O-])c2)c1)C1CCCCC1", "target": "GABA transporter, rat", "test": "binding", "setting": "50 µM, added: [3H]GABA", "inhibition": "7%"}
{"SMILES": "C#Cc1n[nH]c2c(-c3cn([C@@H](C)c4ccccn4)c(=O)[nH]c3=O)cc(F)cc12", "target": "Tyrosine-protein kinase Lyn (LYN, Homo sapiens, UniProt P07948)", "test": "kinase activity, inhibitor", "setting": "100 nM", "inhibition": "6.6%"}
{"SMILES": "O=C(NCc1ccc(C(F)(F)F)cc1)C1CC2CCC1C2 (stereo not drawn)", "target": "Trypanothione synthetase", "test": "enzyme activity", "setting": "25 µM", "inhibition": "27.7 ± 28.1%"}
{"SMILES": "CC(=O)NC[C@H]1[C@H](O)[C@H](O)[C@@H]2[C@H](O)C[C@@H](CO)N21", "target": "Spodoptera litura β-N-acetylglucosaminidase", "test system": "crude enzyme", "setting": "0.00627 µM, run 1, added: p-nitrophenyl GlcNAc", "inhibition": "36.7%"}
{"SMILES": "CN1CCN(c2cc(-c3ccncc3)c(-c3ccc4ccccc4c3)nn2)CC1", "target": "Corticotropin-releasing factor receptor 1 (CRHR1, Homo sapiens, UniProt P34998)", "test": "antagonist, FLIPR", "setting": "10 µM", "inhibition": "1.9%"}
{"SMILES": "O=C1NC(=O)C(c2ccccc2)(c2ccccc2)N1", "target": "GABA-A receptor alpha-1/beta-3, with gamma-2 subunit (GABRA1/GABRB3, Homo sapiens, UniProt P14867+P28472)", "test": "reversal, anesthetic-enhanced desensitization", "setting": "concentration not given, α1β3γ2 receptor", "scale": "higher is stronger", "inhibition": "-8%"}
{"SMILES": "NC(Cc1cc(O)c(O)cc1O)C(=O)O (racemic)", "target": "Genome polyprotein NS3 helicase domain", "test": "DNA binding, inhibitor", "test system": "hepatitis C virus", "setting": "100 µM, added: Cy5-dT15 DNA", "inhibition": "22%"}
{"SMILES": "O=C(CCCCCCc1ccccc1)c1ncc(-c2ccccn2)o1", "target": "recombinant FAAH (rat)", "test": "enzyme activity", "setting": "100 nM, 3 h, 22 °C, before dialysis", "inhibition": "~80%"}
{"SMILES": "CCNC(=O)[C@H]1O[C@@H](n2cnc3c(N)ncnc32)[C@H](O)[C@@H]1O", "target": "Genome polyprotein NS3 helicase domain", "test": "DNA binding, inhibitor", "test system": "hepatitis C virus", "setting": "100 µM, added: Cy5-dT15 DNA", "inhibition": "0%"}
{"SMILES": "COc1ccc(N2C(=O)N(c3c(C)cccc3Cl)Cc3cnc(Nc4ccc(C5CCN(C)CC5)cc4OC)nc32)nc1", "target": "Serine/threonine-protein kinase PAK 2 (PAK2, Homo sapiens, UniProt Q13177)", "test": "kinase activity", "setting": "0.5 µM", "inhibition": "10%"}
{"SMILES": "CN(CCN1CCC(OC(=O)Nc2ccccc2-c2ccccc2)CC1)C(=O)c1ccc(CN2CCC(C(N)=O)CC2)cc1", "target": "human estrogen receptor", "test": "radioligand binding", "setting": "1 µM, added: [3H]estradiol 1.0 nM", "inhibition": "-7%"}
{"SMILES": "Cn1cccc1-c1cccnc1", "target": "Alpha-1A adrenergic receptor (ADRA1A, Homo sapiens, UniProt P35348)", "test": "binding", "setting": "50 µM", "inhibition": "17%"}
{"SMILES": "CN1C2CCC1CC(OC(=O)c1c[nH]c3ccccc13)C2.Cl (stereo not drawn)", "target": "Genome polyprotein NS3 helicase domain", "test": "DNA binding, inhibitor", "test system": "hepatitis C virus", "setting": "100 µM, added: Cy5-dT15 DNA", "inhibition": "0%"}
{"SMILES": "CC(C)Cn1nc(C(=O)Nc2nc(-c3cccnc3)cs2)c2ccccc2c1=O", "target": "Trypanothione synthetase", "test": "enzyme activity", "setting": "25 µM", "inhibition": "13.3 ± 10.5%"}
{"SMILES": "Br.CCCN(CCC)[C@@H]1CCc2ccc(O)cc2C1", "target": "Genome polyprotein NS3 helicase domain", "test": "DNA binding, inhibitor", "test system": "hepatitis C virus", "setting": "100 µM, added: Cy5-dT15 DNA", "inhibition": "0%"}
{"SMILES": "Ic1cccc2cnccc12", "target": "NMDA receptor phencyclidine site (rat)", "test": "radioligand binding, inhibitor", "setting": "10 µM", "inhibition": "10%"}
{"SMILES": "CC[C@H](C)[C@H](NC(=O)[C@@H](NC(=O)[C@H](N)Cc1ccccc1)C(C)C)C(=O)N[C@@H](C)C(N)=O", "target": "Amyloid-beta precursor protein (APP, Homo sapiens, UniProt P05067)", "test": "amyloid-beta aggregation, thioflavin T fluorescence", "setting": "0.5 µM, 48 h, added: 2 µM amyloid-beta", "inhibition": "78.8%"}
{"SMILES": "Cc1ncc(CNC(=O)N(CCCl)N=O)c(N)n1", "target": "Genome polyprotein NS3 helicase domain", "test": "DNA binding, inhibitor", "test system": "hepatitis C virus", "setting": "100 µM, added: Cy5-dT15 DNA", "inhibition": "2%"}
{"SMILES": "O=C(Nc1cnccc1Cl)N1CCN(Cc2ccc3c(c2)OC(F)(F)O3)CC1", "target": "Alpha-2B adrenergic receptor (ADRA2B, Homo sapiens, UniProt P18089)", "test": "binding", "setting": "50 µM, added: [3H]rauwolscine", "inhibition": "46%"}
{"SMILES": "Cl.NCC(O)c1cc(O)c(O)cc1F (stereo not drawn)", "target": "Genome polyprotein NS3 helicase domain", "test": "DNA binding, inhibitor", "test system": "hepatitis C virus", "setting": "100 µM, added: Cy5-dT15 DNA", "inhibition": "1%"}
{"SMILES": "O=C(N[C@H](CO)[C@H](O)c1ccc([N+](=O)[O-])cc1)C(Cl)Cl", "target": "Gag polyprotein, nucleocapsid protein p7 (gag, Human immunodeficiency virus type 1 group M subtype B, UniProt P04591)", "test": "NCp7-RNA binding, AlphaScreen", "test system": "HIV-1", "setting": "45 µM", "inhibition": "> 50%"}
{"note": "Some of these lines once more:"}
{"SMILES": "CCS(=O)(=O)Nc1cccc(C(=C2CCCCC2)c2cnc[nH]2)c1", "target": "Genome polyprotein NS3 helicase domain", "test": "DNA binding, inhibitor", "test system": "hepatitis C virus", "setting": "100 µM, added: Cy5-dT15 DNA", "inhibition": "0%"}
{"SMILES": "C[C@H](C(=O)N[C@H]1COc2ccccc2[C@@H]1S(C)(=O)=O)c1ccc(F)cc1", "target": "steroid 5alpha-reductase (rat)", "test": "Eurofins selectivity panel", "setting": "10 µM", "inhibition": "7%"}
{"SMILES": "CN(C(=O)n1cnc(-c2ccc[n+]([O-])c2)c1)C1CCCCC1", "target": "GABA transporter, rat", "test": "binding", "setting": "50 µM, added: [3H]GABA", "inhibition": "7%"}
{"SMILES": "C#Cc1n[nH]c2c(-c3cn([C@@H](C)c4ccccn4)c(=O)[nH]c3=O)cc(F)cc12", "target": "Tyrosine-protein kinase Lyn (LYN, Homo sapiens, UniProt P07948)", "test": "kinase activity, inhibitor", "setting": "100 nM", "inhibition": "6.6%"}
